Measured values pooled from the literature.
Every numbered part comes from another study and shows a few of its results, in no order. Positions count from the first letter of the parent shown.

Series 1 — target: CCNB2, cyclin fold, Cln2 fusion (human); technique: yeast growth competition, sequencing; sample: yeast; notes: weak parent motif; relative to: not given; direction: higher = stronger binding
Starting sequence: SAMHD1 docking peptide (human); ASKSRVQLFKDDP
Substitution	normalised enrichment score
S4H	0.202
D12I	0.138
K10I	0.255
L8I	-0.0398
R5G	-0.188
S4L	1.5
D11E	0.267
S2C	0.0127
S2W	0.267
F9H	0.931
R5T	0.128
D11S	0.358
S4M	0.999
K10Q	-0.0919
K3F	0.0717
D12W	-0.0553
S2K	0.241

Series 2 — technique: protein-binding microarray; molecule type: hairpin DNA; sample: in vitro; tested at: not given; relative to: not given; direction: higher = stronger binding
Target: GDNF-inducible zinc finger protein 1, full length (GZF1, Homo sapiens, UniProt Q9H116, residues 1-711)
Notes: whole hairpin DNA, median over replicate spots
Target sequence (chain): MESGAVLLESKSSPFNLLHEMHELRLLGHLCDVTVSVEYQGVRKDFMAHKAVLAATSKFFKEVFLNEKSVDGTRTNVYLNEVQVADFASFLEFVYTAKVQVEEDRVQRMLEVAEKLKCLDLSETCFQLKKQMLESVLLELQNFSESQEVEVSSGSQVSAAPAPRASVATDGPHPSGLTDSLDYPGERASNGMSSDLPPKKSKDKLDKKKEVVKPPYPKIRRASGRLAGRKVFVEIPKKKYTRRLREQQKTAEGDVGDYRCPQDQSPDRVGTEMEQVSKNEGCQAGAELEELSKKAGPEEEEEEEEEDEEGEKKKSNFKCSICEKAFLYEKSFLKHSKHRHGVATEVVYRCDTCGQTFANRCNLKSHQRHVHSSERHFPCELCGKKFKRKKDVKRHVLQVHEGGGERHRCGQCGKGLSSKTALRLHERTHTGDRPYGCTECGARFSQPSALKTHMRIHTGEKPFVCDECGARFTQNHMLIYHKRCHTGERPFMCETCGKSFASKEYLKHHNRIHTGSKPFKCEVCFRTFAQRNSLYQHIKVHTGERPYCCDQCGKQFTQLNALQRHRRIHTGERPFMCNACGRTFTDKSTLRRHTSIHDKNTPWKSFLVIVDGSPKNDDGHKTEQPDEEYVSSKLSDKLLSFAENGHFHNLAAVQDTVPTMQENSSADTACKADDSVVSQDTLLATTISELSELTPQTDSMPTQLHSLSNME
Oligonucleotide	median fluorescence
GAGGCCATTACGCTAATGCCTCCTGGCATTAGCGTAATGGCCTCACACTC (5mC at 13)	406 a.u.
GAGGCCATTACGGTAATGCCTCCTGGCATTACCGTAATGGCCTCACACTC	714 a.u.
GAGGCCCGTACGGTAATGCCTCCTGGCATTACCGTACGGGCCTCACACTC (5mC at 7 37)	727 a.u.
GAGGCCACTACGGTAATGCCTCCTGGCATTACCGTAGTGGCCTCACACTC (5mC at 8)	677 a.u.
GAGGCCATTACAGTAATGCCTCCTGGCATTACTGTAATGGCCTCACACTC	376 a.u.
GAGGCCCTTACGGTAATGCCTCCTGGCATTACCGTAAGGGCCTCACACTC (5mC at 7)	616 a.u.
GAGGCCATTCCGGTAATGCCTCCTGGCATTACCGGAATGGCCTCACACTC (5mC at 10)	531 a.u.
GAGGCCATTACGGTAGTGCCTCCTGGCACTACCGTAATGGCCTCACACTC (5mC at 29)	735 a.u.
GAGGCCTTTACGGTAATGCCTCCTGGCATTACCGTAAAGGCCTCACACTC	598 a.u.
GAGGCCATTACGGTAATGCCTCCTGGCATTACCGTAATGGCCTCACACTC (5mC at 32)	810 a.u.
GAGGCCATTACGGCGATGCCTCCTGGCATCGCCGTAATGGCCTCACACTC (5mC at 14)	555 a.u.
GAGGCCATTACGGGAATGCCTCCTGGCATTCCCGTAATGGCCTCACACTC	513 a.u.
GAGGCCCTTACGGTAATGCCTCCTGGCATTACCGTAAGGGCCTCACACTC	607 a.u.
GAGGCCATCGCGGTAATGCCTCCTGGCATTACCGCGATGGCCTCACACTC (5mC at 9 35)	692 a.u.
GAGGCCATTACGCGAATGCCTCCTGGCATTCGCGTAATGGCCTCACACTC (5mC at 31)	532 a.u.

Series 3 — technique: protein binding microarray; molecule type: double-stranded DNA, one strand shown; sample: in vitro; tested at: not given; relative to: not given; direction: higher = stronger binding
Target: Histone acetyltransferase KAT6A, winged helix 2, GST fusion (KAT6A, Homo sapiens, UniProt Q92794, residues 85-181)
Notes: 8-mer, flanks averaged, mean of 2 arrays, mostly near background
Target sequence (chain): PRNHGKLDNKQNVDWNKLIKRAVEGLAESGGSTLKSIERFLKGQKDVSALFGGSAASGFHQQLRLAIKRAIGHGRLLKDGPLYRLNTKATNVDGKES
Oligonucleotide	E-score
AGCTCCGG	0.103
ACAGCGGT	-0.0463
AGAGTACA	-0.00809
CATAATAC	-0.24
TACAGATA	-0.068
AGGCTCTC	0.0294
GTGGCCAC	0.151
CACCCACG	0.163
AAATGTGT	-0.00961
GACGAGCA	0.11
CTATGCAA	-0.113
GCAAGAAA	0.16
GCTTAGCA	0.131
CAGAACAA	0.143
CACTGAAA	0.0473
GACTTGGA	-0.0773
GACTGGAC	-0.0154
AAACTGCA	0.0985
AGAAGAAT	-0.0356
ACGCCGCC	0.072
CTTCAGGA	0.0188
ACGTCTAT	-0.273
ACGTACTA	-0.099
AACTAAAA	0.0604
ACCCCAGA	-0.152

Series 4 — technique: RNA Bind-n-Seq; molecule type: RNA; sample: in vitro; tested at: 1 µM; notes: whole 134-nt RNA, ends assumed; added: 150 mM KCl; relative to: input library; direction: higher = stronger binding
Target: Ras GTPase-activating protein-binding protein 1, RRM domain (G3BP1, Homo sapiens, UniProt Q13283)
Sequence of UniProt Q13283 (whole entry, looked up): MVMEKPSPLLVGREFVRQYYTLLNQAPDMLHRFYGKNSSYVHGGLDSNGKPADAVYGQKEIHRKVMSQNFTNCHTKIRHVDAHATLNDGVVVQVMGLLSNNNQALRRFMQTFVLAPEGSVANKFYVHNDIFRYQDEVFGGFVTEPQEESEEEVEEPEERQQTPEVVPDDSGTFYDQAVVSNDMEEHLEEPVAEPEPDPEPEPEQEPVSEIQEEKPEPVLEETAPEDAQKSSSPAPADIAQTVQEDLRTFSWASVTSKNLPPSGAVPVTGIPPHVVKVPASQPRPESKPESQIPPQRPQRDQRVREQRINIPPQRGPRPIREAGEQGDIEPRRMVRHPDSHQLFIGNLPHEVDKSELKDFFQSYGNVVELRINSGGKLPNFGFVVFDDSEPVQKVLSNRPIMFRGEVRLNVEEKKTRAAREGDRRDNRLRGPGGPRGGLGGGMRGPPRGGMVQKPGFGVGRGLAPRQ
Shared flanks, not repeated: GGGAGUUCUACAGUCCGACGAUC … UGGAAUUCUCGGGUGUCAAGG
Oligonucleotide	log2 enrichment
UCCUGUGCUACACAUCGUAUGUACCGAAUCGGGGAAAAAGGGAAAAAGGGGAAAAAGGGGAAAGUAUUAUGUUACGCCGUUCGGAUCUGC	0.0892
UCCUGUGCUACACAUCGUAUGUACCGAAUCGGGGAAAAAAAGGGGAAAAAGGGGUGGGGAAAGUAUUAUGUUACGCCGUUCGGAUCUGCA	0.835
GCAGGAAGUAAAAACAAAUGGAAAUGCUUCGGAUAGUGGCAGGGGUGGGGGUUGCUAAGGAAAGGGUGGGAUGGAAGUGGGUAAAGAGUU	1.01
GCAGGAAGUAAAAACAAAUGGAAAUGCUUCGGAUAGUGGCAGGGGUGGGGGUUGCUAAGGAAAGGGAAAGAUGGGAGUGGGUAAAGAGUU	1.08
AGUCCUGUGCUACACAUCGUAUGUACCGAAUCGGGGAAAAAAAGGGGUGGGGAGGGGAAAGUAUUAUGUUACGCCGUUCGGAUCUGCACU	0.924
CCUGUGCUACACAUCGUAUGUACCGAAUCGUGUGUGUGUGUGUGUGUGUGUGUGUGUGUGUAAAGUAUUAUGUUACGCCGUUCGGAUCUG	0.134
GGUGUUGCUGGAAGAAGCCAAGGAUUUGCUCUCUGACUGGCUGGAUUCUACACUUGGCUGUGAUGUCACUGACAAUUCCAUCUUCUCCAA	-0.117
UUAAAGUAGAGGAACAAAAAGAAGAACAGAAGGAGUUAGAGAAAUCUGAAAAAGAAGAGGAUGAGGAUGAUGAUAGGAAAUCUGAAGACG	0.0679

Series 5 — technique: universal PBM; molecule type: double-stranded DNA, one strand shown; sample: in vitro; tested at: not given; direction: higher = stronger binding
Target: Sal-like protein 4, full length isoform B (SALL4, Homo sapiens, UniProt Q9UJQ4-2, residues 1-616)
Notes: 8-mer, flanks averaged, mean of replicates
Oligonucleotide	E-score
GAAAAAAC	0.226
GCGGAGAA	-0.179
TGCCAAAA	0.0646
AATTACCG	0.0707
CGTTCTGA	-0.104
AGACAGGG	-0.187
GATTTTCA	0.283
CTCCTTTC	-0.153
GGTCGCAC	-0.193
ACTGCCCA	-0.195
GTCACGTA	0.0938
TAGTAAGA	0.13
ATGAGCCG	-0.0893
ATGTCTGA	0.204
AGGCACAA	0.0299
AATCACAG	-0.0169
GTCTCAAA	0.0594
AATAGTCC	-0.0732
CCCCATAC	-0.0259
GGAACTAA	-0.0692
AACCCCAC	-0.165
CATAGCCC	-0.198

Series 6 — technique: EMSA with sequencing; molecule type: double-stranded DNA, one strand shown; sample: in vitro; tested at: 10 and 20 nM; relative to: negative control set to 0; direction: higher = stronger binding
Target: Hepatocyte nuclear factor 3-alpha (Foxa1, Mus musculus, UniProt P35582, residues 1-468, full length assumed)
Notes: whole designed probe, mean of two concentrations, ends assumed
Shared flanks, not repeated: GTGAGCGGTGCCCATTGATGGGGAAC … TTTCACTGGGATCGTGGGGAC
Construct (chain): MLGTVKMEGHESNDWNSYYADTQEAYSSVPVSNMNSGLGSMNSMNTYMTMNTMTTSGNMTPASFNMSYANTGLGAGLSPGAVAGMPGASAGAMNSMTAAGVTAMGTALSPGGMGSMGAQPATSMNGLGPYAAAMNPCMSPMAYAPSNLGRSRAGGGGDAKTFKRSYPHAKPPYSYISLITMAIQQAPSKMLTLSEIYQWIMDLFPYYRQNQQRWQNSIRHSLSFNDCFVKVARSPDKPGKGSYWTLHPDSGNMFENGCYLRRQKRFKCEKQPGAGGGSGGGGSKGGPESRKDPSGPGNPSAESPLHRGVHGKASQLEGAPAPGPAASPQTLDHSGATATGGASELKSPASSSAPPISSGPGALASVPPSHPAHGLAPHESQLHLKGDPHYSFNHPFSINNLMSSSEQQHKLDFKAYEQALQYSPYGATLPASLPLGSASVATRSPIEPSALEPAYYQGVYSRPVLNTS
Oligonucleotide	normalised bound fraction [ratio]
TCTCCTGGCAACTGTGCAGCTCCACTCTGCACCCTTGGTTTATCCTTCCTGTTTCCTCACTTATCAAATATTTATTGTCAACAACGGGCAGTTCTGTTTGCACACAGTGTGATGGGGTAATGAGATAGTTAGGTTTCCTCCTGTTATTGATGGGGAGTGCTGATGGCATGAATAATTTCCTCTTTTTATAAAT	0.286
CAGCCTGCCCTTTTTCTGAAATATTAGTAATTTTCTTTTTCTTTTTCCTTTTTTTTTTTTTTTTTGGACAATTAAGGGAGACTTGTCCAACTATGTAAACACAGAAAGCACTCAAGCAACAATGCCCTCGTAATTAGCAGCGGGCAGGCCGGCGTCTGGGCTGGCCCGTCAGGCGCGGCGTCAGCTGAAAGGG	0.419
CTCAGCAAGGCTTTAAGGTCCTTAAAACATGACCCACACTAACCAGCCTTAGGTTTCCACTGTCTCATAGCTCAGTTTCCACCAAAATGGGGAAAATTACCCAGAGATCTGTGCTCAGTTGGCTCTCTGCTTCTTGACTAGCTTCATTTACTGCCCATTGAAATTCTAACCCCAGGTCAAAAGCCATCTTTTC	-0.0954
ACAGGATATGTTCAGTGAGTAAGGGCTGCTGTTGTTAATAGAAGCCACCTTTGGATCCCCAGTACCTAACAGTACTTGAATGTATATACGTGCATGTTTACATTAAGTGTATCTGTCTATACCTAGGCCTGTGTCCACGTCCATATCCATATCTATCGTTTTGCATCTAGCAAGTTTTTTGAAAGAGGGACTA	0.353
GCCTAATTTGTCTCTTCCAGTAAAAGTATTTGAGAAATTTTCCATTGCCCAATACCTTCCCATGATGGAAAATACACTGCATGGAAGGTATGTGTAATTTTTTGATTCGTGTTTTACTGATTTCAGTGTCACAACCTAGCAATCATTAACACTTCGAAAAACATACACCTGGTTAGTTGTTTCCAAAGTACAT	-0.0236
TGATATTCCTCAAATATCGTATTTGGCAATACTAGTGGAATACGATATCTAGATAAGGTTACTGTATTGAAATGACAAGGTTGTACTGTGGACCTGTTTACTTTGTGACTTTGCCACTTATTTCCTAAAATATCACCATTACTTAAAACAATTCAAGAGCAGCCTACTCTTCCAAAATAAATTGCTTTATACA	0.381
ATCTAGTTCCAGTCTTAGCATGGCAATTTCTTCCCGCAACATGCTGTTTTCACGCAAGAGATCTTCTTCTTTCTTATGACTAAGAGAAAGCTAAGTAAACAAAGGGAACTTTTAGTTAGCACTCAATAGAATGACATATCATGATTTCTTCTAAAATCAAAGAATGACATTTATATTTGTATAATGAAATAAT	0.522

A few entries again (series 4):
Oligonucleotide	log2 enrichment
GCAGGAAGUAAAAACAAAUGGAAAUGCUUCGGAUAGUGGCAGGGGUGGGGGUUGCUAAGGAAAGGGAAAGAUGGGAGUGGGUAAAGAGUU	1.08
CCUGUGCUACACAUCGUAUGUACCGAAUCGUGUGUGUGUGUGUGUGUGUGUGUGUGUGUGUAAAGUAUUAUGUUACGCCGUUCGGAUCUG	0.134
GCAGGAAGUAAAAACAAAUGGAAAUGCUUCGGAUAGUGGCAGGGGUGGGGGUUGCUAAGGAAAGGGUGGGAUGGAAGUGGGUAAAGAGUU	1.01
AGUCCUGUGCUACACAUCGUAUGUACCGAAUCGGGGAAAAAAAGGGGUGGGGAGGGGAAAGUAUUAUGUUACGCCGUUCGGAUCUGCACU	0.924
GGUGUUGCUGGAAGAAGCCAAGGAUUUGCUCUCUGACUGGCUGGAUUCUACACUUGGCUGUGAUGUCACUGACAAUUCCAUCUUCUCCAA	-0.117
UUAAAGUAGAGGAACAAAAAGAAGAACAGAAGGAGUUAGAGAAAUCUGAAAAAGAAGAGGAUGAGGAUGAUGAUAGGAAAUCUGAAGACG	0.0679
UCCUGUGCUACACAUCGUAUGUACCGAAUCGGGGAAAAAGGGAAAAAGGGGAAAAAGGGGAAAGUAUUAUGUUACGCCGUUCGGAUCUGC	0.0892
